# Measurements from different studies.
# Each numbered part is a random draw from the data of one study; scales do not carry over between parts. Positions count from the first letter of the parent shown.

# Set 1 — method: protein binding microarray; molecule type: double-stranded DNA, one strand shown; sample: in vitro; tested at: not given; reference: not given; reading: higher = stronger binding
# Target: Histone acetyltransferase KAT6A, winged helix 1, GST fusion (KAT6A, Homo sapiens, UniProt Q92794, residues 1-85)
# Setting: 8-mer, flanks averaged, mean of 2 arrays, mostly near background
# Construct (chain): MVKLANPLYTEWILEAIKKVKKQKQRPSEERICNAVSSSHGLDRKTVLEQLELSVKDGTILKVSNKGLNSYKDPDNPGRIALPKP
Sequence,E-score
TACACCTA,-0.147
AGATGTAG,-0.0755
CGGACACC,0.176
GGATCACC,-0.0861
ACTTTATA,-0.0844
GCTACGAC,0.155
GCTGTGAC,0.085
GGCCCGAC,0.253
GACATGAA,-0.126
CCGCAAGC,0.201
AATCCGTC,0.171
GTCTATGA,-0.0934
GATGGGTA,-0.131
AGCAATTC,-0.0813
CTCCATAC,-0.0586
ACCTTTCG,-0.037
AGGGTCGG,0.127
CGGTGGTA,0.127
GATTGACC,0.0199
ACCGCATG,0.197
TGCCATAA,-0.0995
CCACTACC,-0.0372
AGATCTTC,-0.122
AATCATTC,-0.106
CATTGAAC,-0.0502

# Set 2 — target: CCND2, cyclin fold, Cln2 fusion (human); method: yeast growth competition, sequencing; sample: yeast; setting: weak parent motif; reference: not given; reading: higher = stronger binding
# Starting sequence: ORC1 docking peptide (human); PRARKRLELGNLG; partner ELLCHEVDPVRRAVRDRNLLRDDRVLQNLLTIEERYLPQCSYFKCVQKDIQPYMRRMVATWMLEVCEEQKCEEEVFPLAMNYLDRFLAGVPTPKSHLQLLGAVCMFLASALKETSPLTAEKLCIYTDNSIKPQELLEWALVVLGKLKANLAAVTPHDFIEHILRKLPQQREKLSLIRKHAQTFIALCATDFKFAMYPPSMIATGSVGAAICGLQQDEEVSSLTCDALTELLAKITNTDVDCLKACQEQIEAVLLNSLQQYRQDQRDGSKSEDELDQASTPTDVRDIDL
Change,normalised enrichment score
PRARERLELGNLG [K5E],0.013
QRARKRLELGNLG [P1Q],0.361
PRARKRLELGCLG [N11C],0.283
PRARKRLELGNKG [L12K],-0.0426
PDARKRLELGNLG [R2D],0.261
YRARKRLELGNLG [P1Y],0.397
PRARKRLELGNLH [G13H],0.134
PRARKRLELLNLG [G10L],0.559
PRARKRLELGALG [N11A],0.367
PRARKRLEIGNLG [L9I],0.25
PRARKRLELPNLG [G10P],-0.0787
PRARKRVELGNLG [L7V],-0.314
PRARKRLELVNLG [G10V],0.0427
PRARKRPELGNLG [L7P],-0.303
PRARKRLEPGNLG [L9P],-0.323
PRARKRLELGNLC [G13C],0.417

# Set 3 — method: competition protein-binding microarray; molecule type: double-stranded DNA, one strand shown; sample: in vitro; tested at: 2 µM; together with: Pho4 competitor, 0.05 µM; reading: higher = stronger binding
# Target: Centromere-binding protein 1, full length, His-tagged (CBF1, Saccharomyces cerevisiae, UniProt P17106, residues 1-351)
# UniProt P17106, sequence (whole entry, looked up): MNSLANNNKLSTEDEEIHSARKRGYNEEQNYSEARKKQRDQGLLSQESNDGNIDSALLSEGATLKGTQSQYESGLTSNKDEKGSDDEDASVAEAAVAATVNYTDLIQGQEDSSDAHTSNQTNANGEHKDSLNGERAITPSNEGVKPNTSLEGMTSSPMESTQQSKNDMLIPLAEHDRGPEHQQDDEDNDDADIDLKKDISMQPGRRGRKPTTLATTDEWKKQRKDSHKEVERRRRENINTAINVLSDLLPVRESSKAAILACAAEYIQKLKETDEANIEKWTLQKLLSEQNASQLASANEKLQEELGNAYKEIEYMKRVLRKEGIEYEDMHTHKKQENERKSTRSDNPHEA
# Setting: whole 60-bp probe, lowest competitor level
Sequence,fluorescence intensity [a.u.]
TTATTTTGGGCCCTCGTTCAAGGGCCATCTCACCCTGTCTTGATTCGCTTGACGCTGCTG,65.6
TTAGAATCGCTTTGTCACGTTTTTTTTTATTTCTTGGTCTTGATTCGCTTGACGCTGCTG,1300
CTTTCTCCCATTCCGCACGTGTCTGCACAAGGCTGGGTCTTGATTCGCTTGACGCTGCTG,1290
TCTGTATGGGTTTGTCATGCTGCTCTGGCCCTTTGTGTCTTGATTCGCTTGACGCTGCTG,65.5
CCCATTCAATTCGCTCTCGTGACGGAATCGTCGGGAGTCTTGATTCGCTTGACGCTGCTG,336
CTTCTGTAAATTTTTCACGTGATATGACGCGCCCCGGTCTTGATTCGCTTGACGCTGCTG,3470
CTAACGAAGGTTTGGACTGTGGGTGACAAGCCAAGTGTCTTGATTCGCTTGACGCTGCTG,62.6
CTTTCCCGATCTTGTAAGGTGGGTGTAGCACATTTGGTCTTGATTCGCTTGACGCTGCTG,62.4
AAAGCGGTAATTTGGCCAGTGGGTGCAGATATCTATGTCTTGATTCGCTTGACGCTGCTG,60.6
TGCGCAACAACTTGGGCTGTGGGTGTATGTCTAGAAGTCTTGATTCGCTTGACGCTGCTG,59.8
CATACACCAAACGCAAATGTGCGGACGGACAAATTCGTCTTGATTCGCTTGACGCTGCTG,87
GATGGAATTACCCATCACGCTCCTCTCTTATGACTAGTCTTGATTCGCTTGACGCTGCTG,183
GCGGTCCCTGTCCTGCACACTGCACTCAACACCATAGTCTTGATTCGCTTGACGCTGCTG,53.4
CGTCCTAGTGATTGTCACACGACTTCCATGAGGAAGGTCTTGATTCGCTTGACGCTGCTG,126
ACCTTGCGGCGATATCACAATTTTCCTTGTACACTCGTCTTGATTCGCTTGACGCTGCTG,84.3
CAGTCTACCAAGGTGAACGTGTCCACTGTAAAGAAAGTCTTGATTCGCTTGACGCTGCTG,94.1
GTCTTGTCTCATTGTCACGATACTTTCCCCACTTCAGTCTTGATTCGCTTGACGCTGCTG,232
TGGTCGAGCTTTTTTCACATGCGGTGGGGAAGGCGGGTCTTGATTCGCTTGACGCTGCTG,73.7
AAAGCGGTAATTTGATATGTGGGTGCAGATATCTATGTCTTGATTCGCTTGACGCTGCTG,75.9

# Set 4 — method: RNA Bind-n-Seq; molecule type: RNA; sample: in vitro; tested at: 365 nM; reference: no-protein control; reading: higher = stronger binding
# Target: RNA binding protein fox-1 homolog 2, RRM domain, GST-SBP tag (RBFOX2, Homo sapiens, UniProt O43251-10, residues 100-194)
# Setting: natural RNA segment, single round, ends assumed
Sequence,RBNS enrichment (R)
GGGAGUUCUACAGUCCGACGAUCCUGGGAAGAUGGGGUAUUUCCCACUUCCAGCAACGAAAUAACAAAUGAAAAGUUGCAUACUUAUUGAUGUAUUGUAUGAGCCAGUAGCAUUUUAUGUACAAAACAGAAGUUGGAAUUCUCGGGUGCCAA,0.813
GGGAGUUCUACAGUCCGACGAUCCCACAAGUCUUGGCCCUUAACCUUUAUCUUUCUUCCUGUCCUCUCACCUAGAUUGUAAGCUCCCUGGGCCAGGACUUCAGCCUGCCUCCGAGGGUCCCCUGUGGCACCUAUGGAAUUCUCGGGUGCCAA,1.19
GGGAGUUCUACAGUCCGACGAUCCACCGGCAACUAACCUAUGACCUUCUGACCUCUGAACUCUUCACCCAAUGAUGACCUGACCAUGCCUGCCUGCUGAUCAGUUAACUGGUAAUCGCCUUUGCUUGCCUGUCUGGAAUUCUCGGGUGCCAA,0.371
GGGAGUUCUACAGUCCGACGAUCUACUGCCCAGAAUGUUAGCAUAAAACAACACAGGAAGCUGAUAAAAAUAGCAGCUGUUGUUUCUCUUUGGAAAGUGACAGCAGAAGUUGGUGGCAUGGGACUUUUUGUCCUGGAAUUCUCGGGUGCCAA,9.55
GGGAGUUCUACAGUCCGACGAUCAGAAAAAAACAAAAAACACGUUUGAUACUUUGUACAUCAUAUGCAUCUUAUUUAAAGGGAUACUUUUGUAAAAGUGAAACCUUGUAUAAAGAAAGAGCAGCCUUUGUUAAUGGAAUUCUCGGGUGCCAA,2.04
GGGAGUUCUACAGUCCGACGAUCUGCCCUCACGGGGGAGUGUUCCUGUGUGGCUCCUGCUCCUGCUGUGUGUCGGGCUUAUUAUUGUGACCAUCCUGCUGCUCCAGAGUGCCUUUCCAGGUUUCCUUUAGCUUUGGAAUUCUCGGGUGCCAA,0.366
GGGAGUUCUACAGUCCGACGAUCAGUUCCUUUGAUAUCUGAGUUUAUUCAACAGUUCUUGGGUUUAGCAAACCCAAAAUAUUUUAUUAAGAAACUGUUUCAAAGAUAAAUUUGCACUGCUCCUUUUUCUUGCCUGGAAUUCUCGGGUGCCAA,0.559
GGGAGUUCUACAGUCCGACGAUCCAAAUAGCAUAUAUCUGAAAUCGUAUGUCUGUGCAGGUUUAACUGCUGCAUACAGCGGGCACAGAUGCAUCUUGUUACAUGUAAGAAAAAGCUGUAUUUGAACAGAGCAUUGGAAUUCUCGGGUGCCAA,0.897

# Repeated from above (set 4):
Sequence,RBNS enrichment (R)
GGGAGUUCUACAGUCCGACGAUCCUGGGAAGAUGGGGUAUUUCCCACUUCCAGCAACGAAAUAACAAAUGAAAAGUUGCAUACUUAUUGAUGUAUUGUAUGAGCCAGUAGCAUUUUAUGUACAAAACAGAAGUUGGAAUUCUCGGGUGCCAA,0.813
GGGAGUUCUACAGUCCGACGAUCCCACAAGUCUUGGCCCUUAACCUUUAUCUUUCUUCCUGUCCUCUCACCUAGAUUGUAAGCUCCCUGGGCCAGGACUUCAGCCUGCCUCCGAGGGUCCCCUGUGGCACCUAUGGAAUUCUCGGGUGCCAA,1.19
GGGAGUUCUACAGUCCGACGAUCCAAAUAGCAUAUAUCUGAAAUCGUAUGUCUGUGCAGGUUUAACUGCUGCAUACAGCGGGCACAGAUGCAUCUUGUUACAUGUAAGAAAAAGCUGUAUUUGAACAGAGCAUUGGAAUUCUCGGGUGCCAA,0.897
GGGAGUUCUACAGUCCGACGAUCAGAAAAAAACAAAAAACACGUUUGAUACUUUGUACAUCAUAUGCAUCUUAUUUAAAGGGAUACUUUUGUAAAAGUGAAACCUUGUAUAAAGAAAGAGCAGCCUUUGUUAAUGGAAUUCUCGGGUGCCAA,2.04
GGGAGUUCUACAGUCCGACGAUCCACCGGCAACUAACCUAUGACCUUCUGACCUCUGAACUCUUCACCCAAUGAUGACCUGACCAUGCCUGCCUGCUGAUCAGUUAACUGGUAAUCGCCUUUGCUUGCCUGUCUGGAAUUCUCGGGUGCCAA,0.371
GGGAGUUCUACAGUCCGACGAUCAGUUCCUUUGAUAUCUGAGUUUAUUCAACAGUUCUUGGGUUUAGCAAACCCAAAAUAUUUUAUUAAGAAACUGUUUCAAAGAUAAAUUUGCACUGCUCCUUUUUCUUGCCUGGAAUUCUCGGGUGCCAA,0.559
